Experimental data gathered from unrelated publications.
Every numbered part comes from another study and shows a few of its results, in no order.

Study 1 — technique: universal PBM; form: double-stranded DNA, one strand shown; sample: in vitro; concentration: not given; direction: higher = stronger binding
Target: Sal-like protein 4, full length isoform B (SALL4, Homo sapiens, UniProt Q9UJQ4-2, residues 1-616)
Notes: 8-mer, flanks averaged, mean of replicates
Oligonucleotide	E-score
ACGTTTCT	0.0573
CTCCGGGA	-0.241
TAGATGAA	0.216
GGCACATA	0.127
GGGGTGCA	-0.349
TCACGGCA	-0.0185
GAGGTCCC	-0.257
GTCGTAAC	0.00201
ACCTGGTG	-0.24
TGCGTTAA	0.117
ACCACCGG	-0.261
ATACCTGC	-0.0461
TAGCGAGA	-0.0408
GACACCAC	-0.292
CCGATTAC	-0.0768
AGCCGGTA	-0.26
GCTAGGCC	-0.246
AAATCATG	0.196
ACGGTGCG	-0.206
ATCATCAA	0.205

Study 2 — technique: RNA Bind-n-Seq; form: RNA; sample: in vitro; concentration: 365 nM; baseline: no-protein control; direction: higher = stronger binding
Target: RNA binding protein fox-1 homolog 2, RRM domain, GST-SBP tag (RBFOX2, Homo sapiens, UniProt O43251-10, residues 100-194)
Notes: natural RNA segment, single round, ends assumed
Shared flanks, not repeated: GGGAGUUCUACAGUCCGACGAUC … UGGAAUUCUCGGGUGCCAA
Oligonucleotide	RBNS enrichment (R)
GUCUGUGCCUCUGAGCAGACCGUGAGAACUCAGGGGACGAGUGGCUAAGAGCAUGGCCUCUCCCAGAACCCACCCAGGGUGGUGUGGUGGGGGCAACAGGGGCCAGACUC	0.603
UUCUCUAAGAGAACAAUGUGCUAUGUGAAGAGUAAGUCAACCUGCCUGACAUUUGGAGUGUUCCCCUUCCACUGAGGGCAGUCGAUAGAGCUGUAUUAAGCCACUUAAAA	0.401
UUUUGAAAUCUCUGAAUGCCUUGGUUCUCAGUAUUAUCAUUCUUUAUUGAAUUUAUUUCUUAUUAAAAUAUGUAGUUUUUAAGACUUUUUUUCUGACAGUAUUAUGUAAU	4.36
GGUGCAGAGUAAUUUCUUACUGUGAGGAAUUGCCCAAUGUAUGGAAAGAUGCAUAGUUGGCUCUCACAUGCUAAAUGCCAGUAGCGCCCUCCUUCGCUUGAAGUCAUGAC	0.43
AUGUCUGUAAUUUUGCUAGUUCAUGAACUGUAAUGUAAACAUCUGGUAUGAAGAAUAUCUGAUAUGCGACUCCUAUGAAAGGGUCGUUUGACCCCACCCCCAACCCCAAU	0.381
GCUAUUUAGGGUAGGCUUAAAGUGCUGGGUGGUGAUUUGAGUUCAAACAAUAAAAAAUUGUAUUUUUUCAAUAUUGUAUAAACAAUAGUGUUCUAAUUACCUUAAAAAAA	0.712
CUCCCUCUCAGUGUCUCCCUCUUGGAUCUGUAGAUCUUCCCUUUGUGUCCUGGCCAGCCCCCAAAUGGCAUUCUAGUGCACAAAUCAUAGGAUGAGAGUUAUACUCCUGU	0.726
CUGAGAGGAUGUAGACUGGGCUGGGGCGAGAACAUGUCACACUAGAUCCCAGUCCACGAUGAUGAGUCAGGGAGACUCGAUAACUGCUCCUUGGCCAUUCAUUUUCCUCC	0.411

Study 3 — technique: RNA Bind-n-Seq; form: RNA; sample: in vitro; concentration: 20 nM; notes: 6-mer, flanks averaged, single round; added: 150 mM KCl; baseline: input library; direction: higher = stronger binding
Target: TAR DNA-binding protein 43, full length, His tag (TARDBP, Homo sapiens, UniProt Q13148, residues 1-414)
Oligonucleotide	6-mer enrichment (R)
AUGGGC	1.98
ACGAUG	0.839
GUGCCC	0.788
GUCCCG	0.797
CCUAAU	0.611
CGGUGG	3.2
ACACCC	0.755
AACUGU	0.657
CAGAGA	0.885
UUGGCA	0.802
CCACCA	0.669
GCAGUA	0.889
UGAUUA	0.598
ACUGGC	0.836

Study 4 — technique: protein binding microarray; form: double-stranded DNA, one strand shown; sample: in vitro; concentration: not given; baseline: not given; direction: higher = stronger binding
Target: Histone acetyltransferase KAT6A, winged helix 2, GST fusion (KAT6A, Homo sapiens, UniProt Q92794, residues 85-181)
Notes: 8-mer, flanks averaged, mean of 2 arrays, mostly near background
Construct (chain): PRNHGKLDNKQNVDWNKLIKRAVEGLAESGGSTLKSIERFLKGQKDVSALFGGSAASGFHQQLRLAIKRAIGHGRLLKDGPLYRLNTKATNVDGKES
Oligonucleotide	E-score
TCAAGGGA	-0.0197
TCATCTCA	-0.0747
GGATCAAC	0.0544
AATCAACT	0.0997
CGTAGGTA	-0.0406
CTTAACAC	0.0383
ATAGGATC	-0.0428
CAAAACAG	-0.0254
ACAAATGA	-0.0455
AAGCTTCC	-0.0267
AAAATCAT	0.143
ATGACTTG	-0.119
GGTACATA	-0.297
GCGTTAAA	-0.0277
CGAGAAAA	0.0613
CAGGTATC	-0.0753
CCGCTCCG	0.211
CGACTCAG	-0.0421
CGCTCTGA	0.0673
AGTGGCAA	0.0732
AGAGAACG	-0.0218
GAAAGATC	-0.104
ACACACAT	-0.0188
GTCCATGA	-0.126
CTTAAAGA	0.014

A few entries again (study 1):
Oligonucleotide	E-score
TCACGGCA	-0.0185
GGGGTGCA	-0.349
AAATCATG	0.196
TAGCGAGA	-0.0408
CCGATTAC	-0.0768
AGCCGGTA	-0.26
